Measurements of several laboratories.
Compare with care: the assays were run in different laboratories. Numbers after ± are the reported error.
HSP90AA1: Heat shock protein HSP 90-alpha (HSP90AA1, Homo sapiens, UniProt P07900)
HSP90AA1 C-terminal domain: Heat shock protein HSP 90-alpha, C-terminal domain (HSP90AA1, Homo sapiens, UniProt P07900)

`Cc1cc(C)c(S(=O)(=O)N(CC(=O)O)c2ccc(Nc3ccnc(N4CCCC4)n3)cc2)c(C)c1` gave a Kd of 5.18 µM (Heat shock protein HSP 90-alpha (HSP90AA1, Homo sapiens, UniProt P07900, Q133A); binding, biolayer interferometry; mutant Q133A).
The IC50 of `CC(C)c1cc(-n2nnc(C(=O)Nc3c(F)ccc(NS(=O)(=O)N4CCCC4)c3F)c2-c2ccncc2)c(O)cc1O` is reported as 0.5 µM (HSP90AA1; ligand displacement, FP).
With `COC(=O)c1c(O)cc(O)c(Cl)c1CCc1ccccc1Cc1ccccc1` the Kd was 20.7 µM (HSP90AA1; ligand displacement, FP).
`CCNC(=O)c1noc(-c2cc(C(C)C)c(O)cc2O)c1NC(=O)CCN1CCOCC1` has an IC50 of 0.2 µM (HSP90AA1; ligand displacement, FP).
`CCC(C)n1c(C(=O)Nc2cnc(C(=O)NC)n(CC(C)C)c2=O)ncc(NC(=O)c2ncc(NC(=O)c3ccccc3)c(=O)n2Cc2ccc(OC)cc2)c1=O` (centres unmarked) gave a Kd of 3.42 ± 1 µM (HSP90AA1 C-terminal domain; binding, microscale thermophoresis; C-terminal domain).
The Kd of `C=CCNC1=C2C[C@@H](C)C[C@H](OC)[C@H](O)[C@@H](C)[C@@H]3O[C@@]3(C)[C@H](OC(N)=O)[C@@H](OC)/C=C\C=C(/C)C(=O)NC(=CC1=O)C2=O` is reported as > 10 µM (HSP90AA1; ligand displacement, FP).
The Kd of `CC[C@H](C)[C@H](NC(=O)[C@@H]1CCCN1C(=O)[C@H](CC(C)C)NC(C)=O)C(=O)N[C@@H](CO)C(=O)N[C@H](C(=O)NCC(=O)NCC(=O)N[C@@H](Cc1ccccc1)C(=O)N[C@@H](CCC(N)=O)C(=O)N[C@@H](CCSC)C(=O)N[C@@H](C)C(=O)N[C@@H](CC(C)C)C(=O)N[C@H](C(=O)N1CCC[C@H]1C(=O)N[C@H](C(=O)N[C@H](C(=O)O)C(C)C)C(C)C)[C@@H](C)O)[C@@H](C)O` is reported as ~90 µM (HSP90AA1; binding, MST).
With `COC(=O)c1c(O)cc(O)c(Cl)c1CCc1ccccc1Cc1ccc(Cl)cc1` the Kd was > 100 µM (HSP90AA1; ligand displacement, FP).
With `O=C1c2ccc(O)cc2-c2c(-c3ccc(O)cc3)oc3cc(O)cc1c23` the Kd was 8.01 µM (HSP90AA1 C-terminal domain; binding, fluorescence polarization; C-terminal domain fragment).
With `COc1cc(/C=C/C(=O)NCCCCCCNC2=C3C[C@@H](C)C[C@H](OC)[C@H](O)[C@@H](C)/C=C(\C)[C@H](OC(N)=O)[C@@H](OC)/C=C\C=C(/C)C(=O)NC(=CC2=O)C3=O)ccc1O` the IC50 was 0.41 µM (HSP90AA1; ligand displacement, FP).
The Kd of `CCC(C)n1c(C(=O)Nc2cnc(C(=O)NC)n(CC(C)C)c2=O)ncc(NC(=O)c2ncc(NC(=O)c3ccccc3)c(=O)[nH]2)c1=O` (centres unmarked) is reported as 249 µM (HSP90AA1 C-terminal domain; binding, microscale thermophoresis; C-terminal domain).

For quick reference, copied from above:
`CCNC(=O)c1noc(-c2cc(C(C)C)c(O)cc2O)c1NC(=O)CCN1CCOCC1` has an IC50 of 0.2 µM (HSP90AA1; ligand displacement, FP).
